Results pooled from the literature.
Parts stem from different laboratories: compare values within a part only. Changes are numbered by the printed parent chain.

Series 1
Target: Histone acetyltransferase KAT6A, winged helix 1, GST fusion (KAT6A, Homo sapiens, UniProt Q92794, residues 1-85)
Technique: protein binding microarray
Molecule type: double-stranded DNA, one strand shown
Matrix: in vitro
Concentration: not given
Notes: 8-mer, flanks averaged, mean of 2 arrays, mostly near background
Relative to: not given
Reading: higher = stronger binding
Residues (chain): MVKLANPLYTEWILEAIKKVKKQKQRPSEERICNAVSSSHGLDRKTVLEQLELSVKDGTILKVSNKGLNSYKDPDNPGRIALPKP
`CTCTCTAC` has an E-score of -0.108.
The E-score of `CCCGGATC` is reported as 0.0579.
With `AAAAAGCA` the E-score was -0.22.
The E-score of `ACTCGAGT` is reported as -0.237.
The E-score of `AGTTAGTC` is reported as 0.0673.
The E-score of `ACAGTGGC` is reported as -0.0514.
With `CGGTAAGA` the E-score was 0.1.
`CTTCGACA` gave an E-score of -0.159.
With `AGATAAAC` the E-score was -0.0642.
`AAAACTTT` gave an E-score of -0.159.
The E-score of `ATTCCCCC` is reported as 0.0473.
With `ATTCCATC` the E-score was -0.112.
`ACTAGAAA` gave an E-score of -0.138.
`AGAGCAAT` gave an E-score of -0.154.
The E-score of `CTTTGCTC` is reported as -0.207.
`ATGGAAGC` gave an E-score of -0.0855.
With `TACTACCA` the E-score was -0.135.
`ACCTTTTA` gave an E-score of -0.122.

Series 2
Target: CCNA2, cyclin fold, Cln2 fusion (human)
Technique: yeast growth competition, sequencing
Matrix: yeast
Notes: strong parent motif
Relative to: not given
Reading: higher = stronger binding
Starting sequence: MICAL3 docking peptide (human); LQLRRQLSFSEDS
`LQLGRQLSFSEDS [R4G]`: “normalised enrichment score” 0.0413.
`LQLRRQLSFSEES [D12E]`: “normalised enrichment score” 3.8.
Under “normalised enrichment score”, `LQLRRQLSFSEQS [D12Q]` is recorded as 3.49.
For `LQFRRQLSFSEDS [L3F]`, “normalised enrichment score” read 4.74.
For `LQLRRQLVFSEDS [S8V]`, “normalised enrichment score” read 4.2.
`LQLRRQLSRSEDS [F9R]`: “normalised enrichment score” 0.373.
`LSLRRQLSFSEDS [Q2S]` — result for “normalised enrichment score”: 3.89.
Under “normalised enrichment score”, `LQGRRQLSFSEDS [L3G]` is recorded as 2.72.
`LQLRRQLSESEDS [F9E]`: “normalised enrichment score” 0.0499.
Under “normalised enrichment score”, `LQLRRQISFSEDS [L7I]` is recorded as 1.35.
Under “normalised enrichment score”, `LQLQRQLSFSEDS [R4Q]` is recorded as 0.322.
Under “normalised enrichment score”, `LQLRRQLHFSEDS [S8H]` is recorded as 3.53.

Series 3
Target: RNA binding protein fox-1 homolog 2, RRM domain, GST-SBP tag (RBFOX2, Homo sapiens, UniProt O43251-10, residues 100-194)
Technique: RNA Bind-n-Seq
Molecule type: RNA
Matrix: in vitro
Concentration: 365 nM
Notes: natural RNA segment, single round, ends assumed
Relative to: no-protein control
Reading: higher = stronger binding
Constant ends, left off below: GGGAGUUCUACAGUCCGACGAUC … UGGAAUUCUCGGGUGCCAA
Residues (chain): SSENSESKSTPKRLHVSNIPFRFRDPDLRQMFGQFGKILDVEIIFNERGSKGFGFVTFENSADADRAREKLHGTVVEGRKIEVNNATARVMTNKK
`UCUGAACCUGCUCCUUUCUUAACUGCCAGGAUUGGAAGCAAGAGCAUCAAGCCCAUAGGAUGACUGCGCAAUCCUGUUCAGUAUUGUGAAGUAGCCCUUAAUCCUAACUU` — result for “RBNS enrichment (R)”: 0.475.
Under “RBNS enrichment (R)”, `AGUACGUUUUGUUGUACAUUUUAGUCUUGUUUACUUUCUCUUCAUUGUUAAGAGGAUGCGAACUGUACAGUUUCCAGCUAGUUACCCAUAUUAGAGAAGAAAUAAGAGAG` is recorded as 0.705.
`UUUUGUAAUAAAUGUGUACAUUUUUUUUAAAUUUUGGACAUCACAUGAAUAAAGGUAUGUAUGUACGAAUGUGUAUAUAUUAUAUAUAUGACAUCUAUUUUGGAAAAUGU`: “RBNS enrichment (R)” 0.665.
`GAGGAAAGUCUUGUGCCAAGAAUAGUUUAACUGGAAAGAUACUACCUGGAAUAUUAGAUGGAAAGCUUCACAUUAGCAUUUUGUGCAUAAUGAUAGAAACAGAUUCUGAU`: “RBNS enrichment (R)” 5.41.
`GCUUCUUUGAUGAAGGAGGAGAGAUGAAGAGUUGCUUGUUUUGCAGAAUUCUAUAGCAUGAAGGUUAACCUUGUCUCCAUUCAUGGGGGUUUAAUUGCCCUAUUGCUCAA`: “RBNS enrichment (R)” 6.32.
Under “RBNS enrichment (R)”, `UUACUCUUCUGUUUGGGAUCGCUCCCACUCUUGUUCCCUUUUUUUCAUUCCUGGCAAUUCCCUCCCAAUCCUGCAGGUGCAACCUGCCAGGCCUGGGCCAUUGUCCUCAU` is recorded as 0.163.
`UGGGGCACCGCACUUUGUAAAGGGUGAUGGUGGACCCCUUCCCUUACUUUCAGGUCUGGAGUCUUCAGAUCUCUUCCUUGAGGCGGCCAGGGAGAGGAAGUCUCGCUCUC`: “RBNS enrichment (R)” 0.269.
`GUUUCACCACCAAAUGCCUUUCCAGGCUGCCCUUCCAACACUCAGGAGAGCAUCCAGAUCCCUGGGCAGAGGCUCUACAUUCUUGGCUUUAGAGGUGGUGGCAGCGGCAG`: “RBNS enrichment (R)” 0.536.
`CUCAAUUAUUAAAUAAAAGAAUAUUUCUUAUUUCUGGGUCAAUAUAAGGUACUGACUUCUGAUGCAUAAUCACUUAAGCUAUGUGAGUUUAAACUGGUAUCUUUUCUUAG` — result for “RBNS enrichment (R)”: 0.626.
For `UUUUGUGUGUGCCAAUUUUGUUAUCACAUCCCUAUGAAGUUGAAAAAUAAAGUUAAUUUUGACCAAAGACUUCAUUUGUAACCCAUGAUGUUCAUCUGUGUGUGCACAGG`, “RBNS enrichment (R)” read 0.282.
`AGAAAAAAGAAAGAAAGAAAAAUGAUUAGAAAUUGAGAACUAUUUUACGUGUUUCUAAGUUGUUGGCUACAUCAAAGAGAUCAUCUGUAUUCUGCAUAUGGGCUGGCUUU`: “RBNS enrichment (R)” 1.04.
`UAGCACUUUUUCAGAGUCUCCUAGGCGCUGUUGCAGCCCAGCUGGGGCAGCUAGCAUGCCAGGUUGGUCUUUAGGCACCAGAGUCUUUAACAAAAAAAUCCUCUAGUACU` — result for “RBNS enrichment (R)”: 0.857.

Series 4
Target: ABI1, truncated, D143A, DHFR fusion (Arabidopsis thaliana)
Technique: DHFR PCA, deep sequencing
Matrix: yeast
Notes: methotrexate growth selection, single substitutions
Together with: (+)-ABA 58 µM
Relative to: wild-type fitted maximum
Reading: higher = stronger binding
Starting sequence: PYL1, truncated, DHFR fusion (Arabidopsis thaliana); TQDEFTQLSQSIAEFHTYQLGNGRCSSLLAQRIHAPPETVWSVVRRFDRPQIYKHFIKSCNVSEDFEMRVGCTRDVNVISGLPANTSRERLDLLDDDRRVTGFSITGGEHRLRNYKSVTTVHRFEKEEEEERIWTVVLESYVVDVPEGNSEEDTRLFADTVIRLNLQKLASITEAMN; partner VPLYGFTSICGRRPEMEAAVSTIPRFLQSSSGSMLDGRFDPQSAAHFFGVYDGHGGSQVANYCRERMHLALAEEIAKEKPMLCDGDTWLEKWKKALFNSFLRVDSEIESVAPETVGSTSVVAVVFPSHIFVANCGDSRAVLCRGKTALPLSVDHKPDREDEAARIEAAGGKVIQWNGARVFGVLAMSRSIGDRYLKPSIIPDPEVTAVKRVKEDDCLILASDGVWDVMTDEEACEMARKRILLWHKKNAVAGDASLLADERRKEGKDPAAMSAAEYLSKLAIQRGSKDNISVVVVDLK
`F15C`: “relative binding score” 56.4%.
`R163V` — result for “relative binding score”: 33.4%.
`I57S`: “relative binding score” -5.6%.
For `N77Q`, “relative binding score” read 94.3%.
`S117R` — result for “relative binding score”: -11.9%.
`V62T`: “relative binding score” 79%.
Under “relative binding score”, `M68K` is recorded as 50.3%.
For `E151P`, “relative binding score” read 84.3%.
Under “relative binding score”, `R24E` is recorded as 85.5%.
For `T73V`, “relative binding score” read 89.6%.
For `R88T`, “relative binding score” read 84.3%.
For `F5A`, “relative binding score” read 81.5%.
`V100G`: “relative binding score” 8.03%.
`N77W`: “relative binding score” 78.5%.
`N77S`: “relative binding score” 89.8%.
`W41C` — result for “relative binding score”: 8.29%.
For `D92E`, “relative binding score” read 75.8%.
`S171F` — result for “relative binding score”: 69.5%.
For `F157K`, “relative binding score” read 3.1%.
Under “relative binding score”, `A170P` is recorded as 0.949%.
`R111A`: “relative binding score” 29.2%.
For `L94Y`, “relative binding score” read 81.2%.

Series 5
Target: Interferon regulatory factor 5, full length, phosphomimetic (IRF5, Homo sapiens, UniProt Q13568-2, residues 1-514, K96S/S451D/S453D/S456D/S462D)
Technique: protein-binding microarray
Molecule type: double-stranded DNA, one strand shown
Matrix: in vitro
Concentration: 250 nM
Notes: 60-bp whole probe
Together with: salmon DNA 0.4 mg/ml
Relative to: random background probes
Reading: higher = stronger binding
Constant ends, left off below: GCCTAGCAC … GTCTTGATTCGCTTGACGCTGCTG
`TTAGGTTTGCTACTGCTTTAGTGCTAG` gave a log fluorescence of 0.0393 z-score.
With `TAGTCTCTTCTGCAGCCTTTGTGCTAG` the log fluorescence was 0.0587 z-score.
`TCAATTTTCATTAACTGACTGTGCTAG` gave a log fluorescence of 2.16 z-score.
`GTAGGTTTCCTTTCCCTTTAGTGCTAG` has a log fluorescence of 1.65 z-score.
With `TGAGGTATCGGGACTGGGTTAGTGCTA` the log fluorescence was 0.663 z-score.
With `GTGTGTTTGAGTCTTCTCCTGTGCTAG` the log fluorescence was 0.149 z-score.
With `TTAGGTATCGGGGCTGGGTTAGTGCTA` the log fluorescence was 1.33 z-score.
`TTAGACTTCAGTATCGATTAGTGCTAG` has a log fluorescence of 7.07 z-score.
`TCAGATTTTTAGTTAGAACTGTGCTAG` gave a log fluorescence of 0.478 z-score.
With `GACCGACTGGGGTATCGGGACGTGCTA` the log fluorescence was 0.122 z-score.
With `GTTGCTCTCTCACCACCTTCGTGCTAG` the log fluorescence was 0.227 z-score.
The log fluorescence of `GACGATCTCAGTCTCCAGACGTGCTAG` is reported as -0.196 z-score.
The log fluorescence of `GACGAACTGGGGACTAGAGACGTGCTA` is reported as -0.376 z-score.
`TGTCTTTTCATTTTCTTTAAGTGCTAG` has a log fluorescence of 2.68 z-score.
The log fluorescence of `CTTTACATGGGTTTTCAGCTGGTGCTA` is reported as 0.361 z-score.
`CCATCTCAGCCTCCCCAAGGGTGCTAG` gave a log fluorescence of -0.342 z-score.
For `TTTCTAATGTTTTTTAAAGTGTGCTAG`, the log fluorescence was 3.5 z-score.
With `TCACCTCCCTGTTTCCAACTGTGCTAG` the log fluorescence was 0.0615 z-score.

Series 6
Target: XBP1, bZIP domain (human)
Technique: DHFR protein complementation
Matrix: yeast
Notes: single substitutions, most at no-binding floor
Relative to: wild-type JUN-FOS pair
Reading: higher = stronger binding
Starting sequence: JUN, bZIP domain (human); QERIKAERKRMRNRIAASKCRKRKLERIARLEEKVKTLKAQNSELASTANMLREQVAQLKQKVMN; partner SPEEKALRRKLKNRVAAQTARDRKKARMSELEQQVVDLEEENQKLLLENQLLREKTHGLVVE
With `T37S` the binding fitness was -0.736 natural log.
`A57Y` has a binding fitness of -0.955 natural log.
For `Q41S`, the binding fitness was -1.53 natural log.
`Q55R` has a binding fitness of -0.845 natural log.
With `A40T` the binding fitness was -0.902 natural log.
The binding fitness of `V35S` is reported as -1.44 natural log.
The binding fitness of `A57L` is reported as -1.11 natural log.
With `A57T` the binding fitness was -1.1 natural log.
For `L59S`, the binding fitness was -0.42 natural log.
The binding fitness of `L52A` is reported as -1.49 natural log.
With `S47D` the binding fitness was -0.644 natural log.
For `Q58S`, the binding fitness was -0.706 natural log.
The binding fitness of `E32V` is reported as -1.3 natural log.
`A40S` gave a binding fitness of -0.976 natural log.
For `V35R`, the binding fitness was -1.35 natural log.

Some of these lines once more (series 1):
With `AAAAAGCA` the E-score was -0.22.
The E-score of `ACTCGAGT` is reported as -0.237.
The E-score of `AGTTAGTC` is reported as 0.0673.
The E-score of `ACAGTGGC` is reported as -0.0514.
With `CGGTAAGA` the E-score was 0.1.
`CTTCGACA` gave an E-score of -0.159.
With `AGATAAAC` the E-score was -0.0642.
`AAAACTTT` gave an E-score of -0.159.
The E-score of `ATTCCCCC` is reported as 0.0473.
With `ATTCCATC` the E-score was -0.112.
`ACTAGAAA` gave an E-score of -0.138.
`AGAGCAAT` gave an E-score of -0.154.
The E-score of `CTTTGCTC` is reported as -0.207.
`ATGGAAGC` gave an E-score of -0.0855.
